# Experimental data of several laboratories.
# Each line is one published result; not all experiments were run side by side. ± gives the spread as reported.
# UniProt Q5VST6, sequence (whole entry, looked up): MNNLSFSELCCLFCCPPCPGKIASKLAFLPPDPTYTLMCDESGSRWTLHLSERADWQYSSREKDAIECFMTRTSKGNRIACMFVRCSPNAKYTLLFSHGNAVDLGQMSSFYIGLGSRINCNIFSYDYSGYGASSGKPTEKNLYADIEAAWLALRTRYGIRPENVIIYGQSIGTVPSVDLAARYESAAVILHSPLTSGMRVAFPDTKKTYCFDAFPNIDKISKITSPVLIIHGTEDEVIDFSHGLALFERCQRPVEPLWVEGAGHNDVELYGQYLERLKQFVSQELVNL
# UniProt Q99623, sequence (whole entry, looked up): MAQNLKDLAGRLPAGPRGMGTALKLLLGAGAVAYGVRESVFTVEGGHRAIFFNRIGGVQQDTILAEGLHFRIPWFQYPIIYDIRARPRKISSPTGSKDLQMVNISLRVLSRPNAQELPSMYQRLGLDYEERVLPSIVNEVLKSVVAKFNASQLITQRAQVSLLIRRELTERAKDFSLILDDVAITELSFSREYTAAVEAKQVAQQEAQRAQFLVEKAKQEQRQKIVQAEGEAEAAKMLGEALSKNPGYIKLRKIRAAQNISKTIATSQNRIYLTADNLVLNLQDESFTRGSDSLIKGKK
# UniProt P32241, sequence (whole entry, looked up): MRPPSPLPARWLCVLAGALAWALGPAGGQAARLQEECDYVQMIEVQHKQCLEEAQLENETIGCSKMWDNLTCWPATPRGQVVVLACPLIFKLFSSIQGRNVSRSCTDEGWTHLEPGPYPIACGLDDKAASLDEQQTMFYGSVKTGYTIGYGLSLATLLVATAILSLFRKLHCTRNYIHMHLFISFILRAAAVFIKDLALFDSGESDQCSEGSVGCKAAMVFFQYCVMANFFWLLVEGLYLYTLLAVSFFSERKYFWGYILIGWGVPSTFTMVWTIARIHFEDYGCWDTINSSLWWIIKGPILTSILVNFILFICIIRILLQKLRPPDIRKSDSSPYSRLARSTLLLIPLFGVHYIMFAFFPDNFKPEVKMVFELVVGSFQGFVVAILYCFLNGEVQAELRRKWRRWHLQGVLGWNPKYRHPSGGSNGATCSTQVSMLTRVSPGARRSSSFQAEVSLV
# UniProt P51957, sequence (whole entry, looked up): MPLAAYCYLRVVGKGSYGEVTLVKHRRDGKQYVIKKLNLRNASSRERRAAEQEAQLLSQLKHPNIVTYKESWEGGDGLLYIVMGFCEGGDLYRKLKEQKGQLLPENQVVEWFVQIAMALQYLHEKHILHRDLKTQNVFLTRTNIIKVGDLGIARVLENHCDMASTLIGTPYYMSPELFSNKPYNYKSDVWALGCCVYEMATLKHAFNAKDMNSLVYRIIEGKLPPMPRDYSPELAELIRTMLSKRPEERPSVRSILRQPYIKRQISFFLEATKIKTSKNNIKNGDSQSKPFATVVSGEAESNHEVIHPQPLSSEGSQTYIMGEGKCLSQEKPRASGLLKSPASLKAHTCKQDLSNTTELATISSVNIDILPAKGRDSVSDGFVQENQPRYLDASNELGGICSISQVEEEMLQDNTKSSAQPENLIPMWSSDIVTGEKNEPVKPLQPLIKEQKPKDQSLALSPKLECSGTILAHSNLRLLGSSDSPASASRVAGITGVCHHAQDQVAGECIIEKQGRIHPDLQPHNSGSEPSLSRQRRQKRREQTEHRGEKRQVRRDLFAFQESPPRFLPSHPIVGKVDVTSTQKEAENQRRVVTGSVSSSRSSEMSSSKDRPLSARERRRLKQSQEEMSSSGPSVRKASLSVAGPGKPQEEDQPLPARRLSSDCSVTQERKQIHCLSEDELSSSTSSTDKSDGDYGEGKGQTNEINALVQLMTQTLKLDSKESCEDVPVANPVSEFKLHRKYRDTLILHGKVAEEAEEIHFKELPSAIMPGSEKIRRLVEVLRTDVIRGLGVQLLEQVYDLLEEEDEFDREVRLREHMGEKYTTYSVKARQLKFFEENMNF
SMILES,tested on,test,system,conditions,how to read,endpoint,result
N[C@@H]1c2ccccc2OC12CCN(c1cnc3c(N4CCCc5ncccc54)n[nH]c3n1)CC2,,,advanced solid tumour patients,"oral, 150 mg once daily",,serious TEAE grade ≥3,75%
CC(C)C[C@H](NC(=O)[C@H](CCCCN)NC(=O)OCC1c2ccccc2-c2ccccc21)C(=O)N[C@H](C(=O)N[C@@H](Cc1ccccc1)C(=O)N[C@@H](Cc1ccccc1)C(=O)N[C@@H](CCCCN)C(=O)NCC(=O)N[C@@H](Cc1ccccc1)C(=O)N[C@@H](C)C(=O)N[C@@H](Cc1c[nH]c2ccccc12)C(=O)N[C@@H](CC(N)=O)C(=O)N[C@H](C(=O)N[C@H]1CSSC[C@@H](C(=O)N[C@@H](Cc2c[nH]cn2)C(=O)N[C@@H](CCCNC(=N)N)C(=O)N[C@@H](CCCNC(=N)N)C(=O)N[C@@H](C)C(=O)N[C@@H](CC(N)=O)C(N)=O)NC(=O)[C@H](C(C)C)NC(=O)[C@H](CCCNC(=N)N)NC(=O)[C@H](C(C)C)NC(=O)CNC(=O)[C@H](CC(N)=O)NC(=O)[C@H](CCCNC(=N)N)NC(=O)[C@H](Cc2ccc(O)cc2)NC(=O)[C@H](C(C)C)NC1=O)C(C)C)C(C)C,,,"ICR mouse, serum","ip, 10 mg/kg, 3 d dosing, blood day 5",,blood urea nitrogen,10.1 ± 0.63 mmol/L
O=C1[O][Pt]2([NH][C@@H]3CCCC[C@H]3[NH]2)[O]C1=O,,"AUC-based, refers to: platinum","BALB/c mice, CT26 tumour",iv,reference: tumour over serum,tumour to organ ratio,1.2
CCCCCCCCCCCCCCCC(=O)N[C@@H](CCC(=O)NCCCC[C@H](NC(=O)[C@H](CC(=O)O)NC(=O)[C@H](CO)NC(=O)[C@@H](NC(=O)[C@H](Cc1ccccc1)NC(=O)[C@@H](NC(=O)CNC(=O)[C@H](CCC(N)=O)NC(=O)[C@H](CO)NC(=O)[C@@H](N)Cc1c[nH]cn1)[C@@H](C)O)[C@@H](C)O)C(=O)N[C@@H](CO)C(=O)N[C@@H](CCC(=O)O)C(=O)N[C@@H](Cc1ccc(O)cc1)C(=O)N[C@@H](CC(C)C)C(=O)N[C@@H](CC(=O)O)C(=O)N[C@@H](CO)C(=O)N[C@@H](CCC(=O)O)C(=O)N[C@@H](CCCNC(=N)N)C(=O)N[C@@H](C)C(=O)N[C@@H](CCCNC(=N)N)C(=O)N[C@@H](CC(=O)O)C(=O)N[C@@H](Cc1ccccc1)C(=O)N[C@H](C(=O)N[C@@H](C)C(=O)N[C@@H](Cc1c[nH]c2ccccc12)C(=O)N[C@@H](CC(C)C)C(=O)N[C@@H](CCC(=O)O)C(=O)N[C@@H](C)C(=O)NCC(=O)NCC(=O)O)C(C)C)C(=O)O,,refers to: Tachycardia,humans CrCl below 20 mL/min,"subcutaneous, 100 µg single dose",,treatment-related adverse events,0%
COc1cc2c(Oc3ccc4[nH]c(C)cc4c3F)ccnc2cc1OCC1(N)CC1,,,paediatric recurrent refractory sarcoma,12 mg,,Hypertension incidence,9.1%
COc1ccc(N2C(=O)N(c3c(C)cccc3Cl)Cc3cnc(Nc4ccc(C5CCN(C)CC5)cc4OC)nc32)nc1,"NEK4 (Homo sapiens, UniProt P51957)",kinase activity,,0.5 µM,,inhibition,-0.725%
CC[C@H](C)[C@H](NC(=O)[C@H](Cc1ccccc1)NC(=O)[C@H](CCC(=O)O)NC(=O)[C@H](CCCNC(=N)N)NC(=O)[C@H](C)NC(=O)[C@H](C)NC(=O)[C@H](CCC(N)=O)NC(=O)[C@H](CCC(=O)O)NC(=O)[C@H](CCC(=O)O)NC(=O)[C@H](CC(C)C)NC(=O)[C@H](Cc1ccc(O)cc1)NC(=O)[C@H](CO)NC(=O)[C@H](CO)NC(=O)[C@@H](NC(=O)[C@H](CC(=O)O)NC(=O)[C@H](CO)NC(=O)[C@@H](NC(=O)[C@H](Cc1ccccc1)NC(=O)[C@@H](NC(=O)CNC(=O)[C@H](CCC(=O)O)NC(=O)[C@H](C)NC(=O)CCc1c[nH]cn1)[C@@H](C)O)[C@@H](C)O)C(C)C)C(=O)N[C@@H](C)C(=O)N[C@@H](Cc1c[nH]c2ccccc12)C(=O)N[C@@H](CC(C)C)C(=O)N[C@H](C(=O)N[C@@H](CCCNC(=N)N)C(=O)NCC(=O)N[C@@H](CCCNC(=N)N)C(=O)N[C@@H](CCCCNC(=O)COCCOCCNC(=O)COCCOCCNC(=O)CC[C@H](NC(=O)CCCCCCCCCCCCCCCCC(=O)O)C(=O)O)C(=O)NCC(=O)NCC(=O)N[C@@H](CO)C(=O)N[C@@H](CCCCNc1c(NCCCCCN(O)C(=O)CCC(=O)NCCCCCN(O)C(=O)CCC(=O)NCCCCCN(O)C(C)=O)c(=O)c1=O)C(=O)O)C(C)C [zirconium-89 labelled],,,"rat, blood","sc, 3 nmol/kg, 4 h, ex vivo",,tissue uptake,0.66 %ID/g
COc1cc(Nc2ncc(F)c(Nc3ccc4c(n3)NC(=O)C(C)(C)O4)n2)cc(OC)c1OC,"VIPR1 (Homo sapiens, UniProt P32241)",,,,,IC50,> 10 µM
NC(=O)[C@H]1CCN(c2ncnc(N)c2F)C[C@@H]1N1CCC[C@@H](Nc2cc(Cl)cc(C(F)(F)F)c2)C1=O,,,B-cell malignancy patients,"oral, 41 mg twice daily, dose",,grade ≥3 hyponatraemia,10%
CO[C@H]1C[C@@H]2CC[C@@H](C)[C@@](O)(O2)C(=O)C(=O)N2CCCC[C@H]2C(=O)O[C@H]([C@H](C)C[C@@H]2CC[C@@H](OC(=O)NCCOCCOCCOCCOCCOCCOCCOCCOCCC(=O)N3CCc4cc(Cn5nc(-c6ccc7oc(N)nc7c6)c6c(N)ncnc65)ccc4C3)[C@H](OC)C2)C[C@@H](O)[C@H](C)/C=C(\C)[C@@H](O)[C@@H](OC)C(=O)[C@H](C)C[C@H](C)/C=C/C=C/C=C/1C,,"phase 1 dose escalation, refers to: fatigue",advanced solid tumour patients,"intravenous, 10 mg weekly, any grade",,dose-reducing adverse events,0%
O=C(Nc1ccccc1)C1CCN(C(=O)Oc2cccnc2)CC1,,,healthy women,"oral, 100 mg, 9 days",,adverse event Anxiety,23.1%
CCC[C@@](N)(CO)CCc1ccc(OCCCCCC(C)C)cc1,,,dog,"oral, 5 mg/kg",,half-life,19.1 h
N=C(N)NCCC[C@@H](NC(=O)[C@@H](N)Cc1ccccc1)C(=O)N[C@@H](Cc1ccccc1)C(=O)N[C@@H](CCCCN)C(N)=O,,LC-MS,human,"25 mg, 11.83 h",,mean fraction excreted in urine,5.83%
C[C@H]1CN(c2n[nH]c3nc(N[C@H]4CC[C@H](NS(=O)(=O)CCC(F)(F)F)CC4)ncc23)CCO1,"Prohibitin-2 (PHB2, Homo sapiens, UniProt Q99623)","inhibitor, Kinobeads competition profiling",,0.032 µM,reference: vehicle,relative abundance,1.06
CN(C(=O)n1cnc(-c2ccc[n+]([O-])c2)c1)C1CCCCC1,,,"Wistar rat, cerebral cortex","oral, 10 mg/kg, 24 h, single dose",,concentration,10.4 ± 1.4 ng/g
O=C(c1ccc(Cl)cc1)N1CCN2C(=O)N(OC(=O)N3CCOc4ccccc43)C(=O)C2C1 (stereo not shown),"ABHD17B (Homo sapiens, UniProt Q5VST6)","enzyme activity, inhibitor, MS-based ABPP",SW-620 in situ,"10 µM, 2 h, 37 °C","reference: compound over DMSO, lower = stronger inhibition",median ratio,1.07
CC[C@H](C)[C@@H]1NC(=O)[C@@H]2CCCN2C(=O)[C@H](CC(C)C)NC(=O)[C@H](CC(C)C)NC(=O)CNC(=O)[C@@H](NC(=O)[C@@H](NC(=O)[C@H](CC(=O)O)NC(=O)CNC(=O)[C@@H](NC(=O)[C@H](C)NC(=O)CNC(=O)[C@H](CCCCN)NC(=O)[C@H](CC(C)C)NC(=O)[C@H](CC(C)C)NC(=O)[C@H](CCCCN)NC(=O)CNC(=O)[C@@H](NC(=O)[C@@H](N)CC(C)C)C(C)C)C(C)C)C(C)C)CSSC[C@@H](C(=O)O)NC1=O,,"RNA-seq, refers to: Clec12a","mouse, traumatic brain injury model, frontal cortex and hippocampus",dose not given,reference: TBI alone,log2 fold change,-1.82
CC(C)=CC1C(C(=O)OC(C#N)c2cccc(Oc3ccccc3)c2)C1(C)C (stereo not shown),,refers to: CYP2C9,"human, age 5 years",,,enzyme contribution to clearance,7.49%
CN[C@@H](C)C(=O)N[C@H]1CN(S(=O)(=O)c2cccc(S(=O)(=O)N3CC[C@H]4CC[C@@H](C(=O)NC(c5ccccc5)c5ccccc5)N4C(=O)[C@@H](NC(=O)[C@H](C)NC)C3)c2)CC[C@H]2CC[C@@H](C(=O)NC(c3ccccc3)c3ccccc3)N2C1=O,,,patients with advanced solid tumours,"45 mg, phase I monotherapy",,treatment-related AST elevation incidence,20%
